Experimental data from different studies.
Parts stem from different laboratories: compare values within a part only.

Study 1 — technique: RNA Bind-n-Seq; molecule type: RNA; matrix: in vitro; tested at: 365 nM; reference: no-protein control; reading: higher = stronger binding
Target: RNA binding protein fox-1 homolog 2, RRM domain, GST-SBP tag (RBFOX2, Homo sapiens, UniProt O43251-10, residues 100-194)
Setting: natural RNA segment, single round, ends assumed
| Sequence | RBNS enrichment (R) |
| --- | --- |
| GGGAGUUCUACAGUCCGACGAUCUUUUCUUGCCCCAGUCAGGCUCAAGCCCUGUGGUUGUAGGAAUAAAGCCUGUGAUCUCAAGAAGUGGUGACUUGUUUUCUUAGGUAUCUGUGCCCUGAGGCUGUAUAUUCUGGAAUUCUCGGGUGCCAA | 0.973 |
| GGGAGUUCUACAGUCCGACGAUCGGGCCUGUGCCGUGAAUUGAAUGGAACACUACUUUGAGGCCCUUGGAGAGUGACAGCAGCUAUAGGGUGGACUCAGGAGCUGUCAGUCUUAACAGCUGAGCCUUGGACCCUGGAAUUCUCGGGUGCCAA | 0.821 |
| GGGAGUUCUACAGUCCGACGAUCGUCUUUGAGAUAGACAUUGGAGCAGACGGACUCUGGAAAGUGCUUCUGUGGCUGUGGUCUGUCCUGGGAACAGACGUGGUAAAAUGCGUUUCCUAUCUCUAAAAUAUCUAUGGAAUUCUCGGGUGCCAA | 0.458 |
| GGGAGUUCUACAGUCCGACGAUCUUCGACUUGAUGAUGUGUGCACACUUCAGGUGGUGGGGACUUGAGCUUUAAAAAAACCUCCACAGCCGAAUCUUCUCCUCCGAGCCACUCCACGUCACGUCCAGCUGGGCUGGAAUUCUCGGGUGCCAA | 0.384 |
| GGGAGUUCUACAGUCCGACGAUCCGUUAAGCAGAAGAAGUCAGUAGUUAUUCUCCCAUGAACGUUCUUGUCUGUGUACAGUUUUUAGAACAUUACAAAGGAUCUGUUUGCUUAGCUGUCAACAAAAAGAAAACUGGAAUUCUCGGGUGCCAA | 0.447 |
| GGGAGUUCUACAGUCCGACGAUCGUCUUCUAAUUGUCUUUGUCUAGAUGGAAACUGAACCUUAGCAGAUGAAUAAACCCUGAAAAGGUCAUUGUGUGCUGUGGUCUGUGGUGACUUAGCCCUCCCAGGCAUUGUGGAAUUCUCGGGUGCCAA | 0.556 |
| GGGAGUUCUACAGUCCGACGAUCAUAAGCCAGAAAGGGUUACUGAGCCACCUUAAGCUAGUACCUAUAUAGUAGGCAAAAAGUACAGAAAUAGAUGCAAUAAGUGUGGUGAGUCUUUGAGCCUACGAGUCAUGUGGAAUUCUCGGGUGCCAA | 0.465 |
| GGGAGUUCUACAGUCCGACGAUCCUUUAGGCCAACUCUGUCUUGGCUGAUAACUCUUACAAUGCACGUUACUAACUUGGUGUCGCUACCCAGGACACAUUGUCUACAGUAAAUGGAAUGUGAGCCACAUCUGUUGGAAUUCUCGGGUGCCAA | 4.99 |

Study 2 — technique: protein-binding microarray; molecule type: double-stranded DNA, one strand shown; matrix: in vitro; tested at: not given; reading: higher = stronger binding
Target: Max-binding protein MNT, bHLH-zipper, MAX partner unstated (MNT, Homo sapiens, UniProt Q99583, residues 220-300)
Setting: k-mer, scored over probes, only values ≥0.25
Residues (chain): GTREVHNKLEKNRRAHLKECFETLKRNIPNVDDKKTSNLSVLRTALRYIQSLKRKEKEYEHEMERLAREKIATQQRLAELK
| Sequence | E-score |
| --- | --- |
| CGCGTGTC | 0.455 |
| ACGGGTGG | 0.306 |
| CCGACGCG | 0.254 |
| AACGTGCA | 0.424 |
| AGGTGCAT | 0.29 |
| CGCGGGGC | 0.269 |
| CGTGCGTC | 0.41 |
| CTTCACGC | 0.257 |
| GACCACGA | 0.331 |
| CACGCGTC | 0.436 |
| CACGGGAG | 0.284 |
| ACGCGGGC | 0.262 |
| AGGGCGGG | 0.312 |
| ACCACCCC | 0.317 |
| ACACGCGG | 0.464 |
| CTCATGTC | 0.331 |
| ACGCACGA | 0.384 |

Study 3 — technique: RNA Bind-n-Seq; molecule type: RNA; matrix: in vitro; tested at: 200 nM; setting: whole 134-nt RNA, ends assumed; with: 150 mM LiCl; reference: input library; reading: higher = stronger binding; library: 7-deaza-guanosine replaces G
Target: Fragile X messenger ribonucleoprotein 1, C-terminal low-complexity region (Fmr1, Mus musculus, UniProt P35922)
| Sequence | log2 enrichment |
| --- | --- |
| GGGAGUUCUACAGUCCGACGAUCUUGCUAACUUCAAGAUAGAGCCUCCUGGACUUUUCCGUGGCCGCGGCAACCACCCCAAGAUGGGCAUGCUGAAGAGACGAAUCAUGCCCGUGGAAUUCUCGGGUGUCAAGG | 0.0654 |
| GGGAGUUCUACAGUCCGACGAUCAGUCCUGUGCUACACAUCGUAUGUACCGAAUCGGAAAAAGGAAAAAAAGGUUUUUGGAAAGUAUUAUGUUACGCCGUUCGGAUCUGCACUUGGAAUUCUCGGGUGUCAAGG | -2.88 |
| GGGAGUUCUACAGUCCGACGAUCCCUCAAGUCCUGUGCUACACAUCGUAUGUACCGAAUCGGGUGGUGGGGUGGGGAAAGUAUUAUGUUACGCCGUUCGGAUCUGCACUUCCAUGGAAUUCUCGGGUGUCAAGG | -0.977 |
| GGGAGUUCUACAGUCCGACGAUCUCAUUUUUUUCCCUGCCGGAAUUUUAGCAUUGAUAUGAACCAUGGACAAGUAUAUUCUGCUGCCACAAAGACUGUAAAGUGCUUCAUUUCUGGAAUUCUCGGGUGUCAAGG | 1.56 |
| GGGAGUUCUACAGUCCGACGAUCUGUGAGCUGACUUUUUGGAUCAACUUUACUUUUCCCUUCUUUUUAGGCAAUUGAAGAUGAAGGUGGUAAUCCUGACGAAAUUGAAAUUACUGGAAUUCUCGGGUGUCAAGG | 0.296 |
| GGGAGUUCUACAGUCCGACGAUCGCAGGAAGUAAAAACAAAUGGAAAUGCUUCGGAUAGUGGCAGGGGUGGGGGUUGAUAAGGAAAGGGUGGGAUGGGAGUGGGUAAAGAGUUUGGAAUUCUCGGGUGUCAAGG | 1.37 |
| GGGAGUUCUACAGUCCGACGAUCAAAGGAAGUAAAAACAAAUGGAAAUGCUUCGGAUAGUGGCAGGGGUGGGGGUUGCUAAGGAAAGGGUGGGAUGGGAGUGGGUAAAGAGUUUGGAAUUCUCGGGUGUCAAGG | 1.64 |
| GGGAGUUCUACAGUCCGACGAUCAAGUCCUGUGCUACACAUCGUAUGUACCGAAUCGGGGCCCCGGGCCCCGGGCCCCGGAAAGUAUUAUGUUACGCCGUUCGGAUCUGCACUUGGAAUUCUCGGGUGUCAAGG | -0.337 |

Study 4 — technique: protein binding microarray; molecule type: double-stranded DNA, one strand shown; matrix: in vitro; tested at: not given; reference: not given; reading: higher = stronger binding
Target: Histone acetyltransferase KAT6A, winged helix 2, GST fusion (KAT6A, Homo sapiens, UniProt Q92794, residues 85-181)
Setting: 8-mer, flanks averaged, mean of 2 arrays, mostly near background
Construct (chain): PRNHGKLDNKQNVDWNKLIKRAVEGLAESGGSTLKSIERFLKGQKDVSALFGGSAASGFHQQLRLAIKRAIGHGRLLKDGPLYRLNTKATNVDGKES
| Sequence | E-score |
| --- | --- |
| GTTTCGCA | -0.18 |
| ACAACGTG | -0.0988 |
| TAGTGTGA | -0.111 |
| ACTGGCAT | -0.168 |
| AAAGAGCA | 0.0724 |
| AATACGGG | -0.0981 |
| ATTGGCTG | -0.042 |
| CACTTGCC | -0.0453 |
| GAGGTGGA | -0.134 |
| CGTGGTCA | -0.144 |
| TAGGGATA | -0.00622 |
| ACGCCACG | -0.021 |
| ACAACTCA | -0.0419 |
| CGACATCA | 0.0851 |
| ATGCATAG | -0.0519 |
| AAGAAACT | 0.0953 |
| CGAAGAGC | -0.0047 |
| AAGATCTC | 0.0468 |
| ATAAAAAG | 0.0359 |
| ATTGTTCG | 0.3 |
| GCACCCTA | -0.0492 |
| GAACAGAC | 0.107 |
| CATTTTGC | 0.0666 |
| GAGGGGAC | 0.084 |
| AACCAGGC | 0.111 |

Study 5 — technique: universal PBM; molecule type: double-stranded DNA, one strand shown; matrix: in vitro; tested at: 600 nM; reading: higher = stronger binding
Target: Sal-like protein 4, full length isoform A (SALL4, Homo sapiens, UniProt Q9UJQ4, residues 1-1053)
Sequence of UniProt Q9UJQ4 (whole entry, looked up): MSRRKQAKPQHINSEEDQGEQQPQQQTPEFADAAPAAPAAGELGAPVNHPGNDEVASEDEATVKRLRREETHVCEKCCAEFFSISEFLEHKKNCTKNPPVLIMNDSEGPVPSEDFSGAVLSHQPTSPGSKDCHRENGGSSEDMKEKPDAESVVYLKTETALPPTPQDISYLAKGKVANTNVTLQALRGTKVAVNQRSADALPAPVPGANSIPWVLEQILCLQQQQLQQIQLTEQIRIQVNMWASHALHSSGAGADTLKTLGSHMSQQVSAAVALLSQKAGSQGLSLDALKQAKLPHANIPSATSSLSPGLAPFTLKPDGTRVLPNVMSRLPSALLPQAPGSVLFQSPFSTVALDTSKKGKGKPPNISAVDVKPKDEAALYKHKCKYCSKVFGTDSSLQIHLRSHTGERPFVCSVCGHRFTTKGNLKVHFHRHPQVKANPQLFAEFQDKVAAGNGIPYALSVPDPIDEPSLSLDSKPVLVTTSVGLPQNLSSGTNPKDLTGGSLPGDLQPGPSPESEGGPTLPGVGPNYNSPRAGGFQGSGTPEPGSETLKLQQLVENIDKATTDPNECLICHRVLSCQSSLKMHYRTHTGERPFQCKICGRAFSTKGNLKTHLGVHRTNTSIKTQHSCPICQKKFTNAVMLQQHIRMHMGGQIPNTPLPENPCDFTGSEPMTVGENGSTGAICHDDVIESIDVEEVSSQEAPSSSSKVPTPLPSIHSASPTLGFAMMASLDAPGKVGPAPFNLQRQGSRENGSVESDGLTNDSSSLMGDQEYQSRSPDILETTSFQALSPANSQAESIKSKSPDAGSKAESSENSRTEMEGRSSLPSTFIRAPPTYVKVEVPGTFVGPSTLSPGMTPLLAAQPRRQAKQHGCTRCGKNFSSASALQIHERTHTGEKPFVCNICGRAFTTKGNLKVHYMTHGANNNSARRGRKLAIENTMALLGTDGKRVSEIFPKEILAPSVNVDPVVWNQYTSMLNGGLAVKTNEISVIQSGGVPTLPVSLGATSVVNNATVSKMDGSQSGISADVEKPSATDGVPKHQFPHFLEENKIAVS
Setting: 8-mer, flanks averaged, mean of replicates
| Sequence | E-score |
| --- | --- |
| GGGAATGA | 0.167 |
| CAAAGAGA | 0.0728 |
| GCCGCAAA | -0.0601 |
| CCAATCCG | -0.119 |
| CTCAATTC | 0.0931 |
| AGATCACT | 0.0955 |
| ACGATCTA | 0.0416 |
| GCTCATCA | 0.0361 |
| ATGGGCCA | -0.137 |
| CATTAGTA | 0.196 |
| CGCAGTCA | -0.0632 |
| AAGTTCCC | -0.238 |
| ACTTCTAA | 0.0398 |
| AGGGTGTA | 0.0197 |
| AGTTCTCG | -0.0238 |
| AACACCTG | -0.095 |
| CGGGTGAA | -0.141 |
| AAATCGGA | 0.128 |
| GCACCAGC | -0.322 |
| AGAGCGAA | -0.106 |
| TGGCTTAA | 0.109 |
| CACAGCGG | -0.2 |
| AAAGCCTT | -0.0208 |
| AATGTTAT | 0.372 |
| ATCTATCA | 0.223 |

A few entries again (study 5):
| Sequence | E-score |
| --- | --- |
| TGGCTTAA | 0.109 |
| CACAGCGG | -0.2 |
| AAAGCCTT | -0.0208 |
| AATGTTAT | 0.372 |
| ATCTATCA | 0.223 |
